Measured values from different studies.
Each numbered part is a random draw from the data of one study; scales do not carry over between parts. “And” joins repeats or separate records; there may be more than shown.

Study 1 — organism: Sarcocystis neurona; read-out: parasite growth; concentration: 10 µM; time: 96 h; setting: first screen; baseline: untreated
SMILES | log2 fold change
COc1ccc2[nH]c([S+]([O-])Cc3ncc(C)c(OC)c3C)nc2c1 (stereo not shown) | 0.12
CCOC(=O)N1CCC(=C2c3ccc(Cl)cc3CCc3cccnc32)CC1 | -0.34
COC(=O)C1=C(C)NC(C)=C(C(=O)OC(C)C)C1c1cccc2nonc12 (stereo not shown) | 0.21
Oc1ccc(C2CNCCc3c2cc(O)c(O)c3Cl)cc1 (stereo not shown) | -0.00225
CCCCNc1cc(C(=O)O)cc(S(N)(=O)=O)c1Oc1ccccc1 | 0.3
C[C@@H]1C[C@H]2[C@@H]3C[C@H](F)C4=CC(=O)C(Cl)=C[C@]4(C)[C@@]3(F)[C@@H](O)C[C@]2(C)[C@@]1(O)C(=O)CO | -0.37
CN(C)CCC(c1ccc(Cl)cc1)c1ccccn1 (stereo not shown) | 0.09
CC(=O)OCC(=O)[C@@]12OC3(CCCC3)O[C@@H]1C[C@H]1[C@@H]3CCC4=CC(=O)C=C[C@]4(C)[C@@]3(F)[C@@H](O)C[C@@]12C | -0.18
COc1cccc2c1C(=O)c1c(O)c3c(c(O)c1C2=O)C[C@@](O)(C(=O)CO)C[C@@H]3O[C@H]1C[C@H](N)[C@@H](O)[C@H](C)O1 | -3.34

Study 2 — cell line: mouse MPNST tumor cells; technique: high-content nuclear imaging; refers to: cell number; concentration: 10 µM; time: 12 h; setting: mean of 2 replicates; baseline: plate mean; reading: higher = more cells
Compound | nuclei count
CCCNc1ccc2ncc(-c3ccc4[nH]ncc4c3)n2n1 | -4.85 z-score
Cc1cccc(C)c1NC(=O)C1CCCCN1C (stereo not shown) | 0.379 z-score
COC(=O)c1cc2c(C(F)(F)F)cc(-c3ccccc3)cc2n1O | 0.512 z-score
CC(C)(C)CC(=O)Nc1c(F)cc(C(=O)N=c2sccn2COP(=O)(O)O)cc1F | 1.01 z-score
CCc1ccc2c(-c3cccc(Cl)c3)nc(=O)n(CC)c2n1 | 1.87 z-score
C[C@](N)(Cc1ccc(O)c(O)c1)C(=O)O | 0.177 z-score and 0.664 z-score
O=C(Nc1ccc(Cl)cc1)C1CCCN(C(=O)c2cccc(-c3ccco3)c2)C1 (stereo not shown) | 3.43 z-score
Oc1c(CN2CCN(c3ccccn3)CC2)cc(Cl)c2cccnc12 | -5.47 z-score
COc1cc(OC)c(C(=O)CCCCN2CCC3(CC2)NC(=O)NC3=O)cc1NS(=O)(=O)c1ccc(C(F)(F)F)cc1 | 1.4 z-score

Study 3 — read-out: enzyme activity; mode: inhibitor; concentration: 0.5 µM; baseline: control
Target: Dual specificity tyrosine-phosphorylation-regulated kinase 3 (DYRK3, Homo sapiens, UniProt O43781)
Chain of UniProt O43781 (whole entry, looked up): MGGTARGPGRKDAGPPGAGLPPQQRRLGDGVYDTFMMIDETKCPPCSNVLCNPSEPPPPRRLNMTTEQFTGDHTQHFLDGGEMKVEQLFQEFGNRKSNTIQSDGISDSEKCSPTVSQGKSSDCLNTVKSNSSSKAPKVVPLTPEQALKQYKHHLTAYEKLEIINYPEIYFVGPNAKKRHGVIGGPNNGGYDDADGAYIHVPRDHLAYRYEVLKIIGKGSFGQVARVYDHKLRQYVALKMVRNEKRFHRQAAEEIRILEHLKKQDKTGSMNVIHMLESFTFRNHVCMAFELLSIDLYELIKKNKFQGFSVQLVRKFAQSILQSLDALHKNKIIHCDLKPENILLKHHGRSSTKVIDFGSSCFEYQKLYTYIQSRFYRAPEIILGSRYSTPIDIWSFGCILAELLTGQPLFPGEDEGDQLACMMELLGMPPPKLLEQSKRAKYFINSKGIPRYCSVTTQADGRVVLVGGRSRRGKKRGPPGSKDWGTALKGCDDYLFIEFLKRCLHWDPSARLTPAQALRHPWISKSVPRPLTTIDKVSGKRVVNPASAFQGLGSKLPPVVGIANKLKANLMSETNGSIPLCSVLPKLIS
SMILES | remaining activity [%]
O=C(CCCc1ccc(-c2ccccc2F)cc1)Nc1ccc(O)cc1 | 94.5
CC(C)[C@H](CO)Nc1nc(Nc2cc(N)cc(Cl)c2)c2ncn(C(C)C)c2n1 | 103
O=C1NC(=O)C(c2cn(CCCO)c3ncccc23)=C1c1cnccn1 | 79.6
OCC(O)CCON=C1C(c2c(O)[nH]c3ccccc23)=Nc2ccccc21 (stereo not shown) | 105
Oc1ccc(-c2nc(-c3ccncc3)c(-c3ccc(F)cc3)[nH]2)cc1 | 101
Cc1cccc(-c2[nH]c(C(C)(C)C)nc2-c2ccc3c(c2)OCO3)n1 | 102
O=C1NC(=O)C(c2cn(CCCn3ccnc3)c3ccccc23)=C1Nc1ccccc1 | 103
Cc1ccc(Nc2nccc(N(C)c3ccc4c(C)n(C)nc4c3)n2)cc1S(N)(=O)=O | 95.9
Nc1[nH]nc2nc3ccccc3nc12 | 102
Cn1sc(=O)n(Cc2ccccc2)c1=O | 108
COc1cc2nccc(Oc3ccc(NC(=S)NC(=O)c4ccccc4C)cc3)c2cc1OC | 90.8
Cc1nc(-c2ccccc2)c(-c2ccncc2)o1 | 106
COc1cc2ncnc(Nc3ccc(F)c(Cl)c3)c2cc1OCCCN1CCOCC1 | 85
CNC(=O)c1cc(Oc2ccc(NC(=O)Nc3ccc(Cl)c(C(F)(F)F)c3)cc2)ccn1 | 92.7
O=c1c2ccccc2[nH]c(=S)n1CCN1CCC(=C(c2ccc(F)cc2)c2ccc(F)cc2)CC1 | 101
NCCNc1ncc(C(N)=O)c(Nc2cccc(C(F)(F)F)c2)n1 | 90.9

Study 4 — read-out: ligand displacement; concentration: 10 µM
Target: Histamine H1 receptor (HRH1, Homo sapiens, UniProt P35367)
Chain of UniProt P35367 (whole entry, looked up): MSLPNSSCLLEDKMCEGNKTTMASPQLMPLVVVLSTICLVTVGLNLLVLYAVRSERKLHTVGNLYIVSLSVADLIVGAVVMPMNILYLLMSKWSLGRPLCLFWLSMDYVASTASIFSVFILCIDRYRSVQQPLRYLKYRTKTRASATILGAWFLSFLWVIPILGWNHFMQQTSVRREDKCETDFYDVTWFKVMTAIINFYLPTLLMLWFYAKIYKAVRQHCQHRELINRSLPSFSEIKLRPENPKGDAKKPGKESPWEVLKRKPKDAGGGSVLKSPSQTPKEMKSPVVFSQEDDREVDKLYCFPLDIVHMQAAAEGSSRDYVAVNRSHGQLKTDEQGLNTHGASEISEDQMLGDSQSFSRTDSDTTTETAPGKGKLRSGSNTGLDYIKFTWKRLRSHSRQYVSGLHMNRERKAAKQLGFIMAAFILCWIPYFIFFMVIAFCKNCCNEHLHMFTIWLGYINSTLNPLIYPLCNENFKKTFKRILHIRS
Structure (SMILES) | inhibition
CN1CCN(c2cnc3c(C4CCN(C(=O)c5ccc(OC(F)(F)F)cc5N)CC4)ncnc3c2)CC1 | 14.6%
Cc1ccccc1Oc1cc(-n2c(=O)cc(C(F)(F)F)[nH]c2=O)c2ccccc2c1Cl | 10.3%
COc1cccc(NC(=O)c2nc3scc(CN(C)Cc4ccccc4)c3c(=O)[nH]2)c1 | 73.4%
O=S(=O)(NC1CCC(c2cc(F)ccc2F)(S(=O)(=O)c2ccc(Cl)cc2)CC1)C(F)(F)F (stereo not shown) | 20.3%
Nc1cnc(N2CCc3cc(S(=O)(=O)Nc4c(F)cc(Cl)cc4F)cc(N4CCCC4=O)c32)nc1 | -2.69%
O=C(NCCCC1CCCCC1)c1ccc(CNC(=O)c2cnn(-c3ccccc3)c2C(F)(F)F)cc1 | 63%
O=C(NS(=O)(=O)c1ccc(NCC2CCOCC2)c([N+](=O)[O-])c1)c1ccc(N2CCN(Cc3ccc(C(F)(F)F)cc3-c3ccc(Cl)cc3)CC2)cc1Oc1cnc2[nH]ccc2c1 | -9.16%
CN(C)C(=O)c1sc2nc(N3CCC(S(C)(=O)=O)CC3)cc(C(F)(F)F)c2c1N | 24.5%
CNC(=N)NCCC[C@H](NC(=O)[C@H](CC(C)C)NC(=O)NNC(=O)[C@H](Cc1ccccc1)NC(=O)[C@H](CO)NC(=O)[C@H](CC(N)=O)NC(=O)[C@@H](Cc1ccncc1)NC(=O)[C@H](N)Cc1ccc(O)cc1)C(=O)N[C@@H](Cc1ccccc1)C(N)=O | 19.9%

For quick reference, copied from above (study 3):
SMILES | remaining activity [%]
Cc1ccc(Nc2nccc(N(C)c3ccc4c(C)n(C)nc4c3)n2)cc1S(N)(=O)=O | 95.9
Nc1[nH]nc2nc3ccccc3nc12 | 102
Cn1sc(=O)n(Cc2ccccc2)c1=O | 108
COc1cc2ncnc(Nc3ccc(F)c(Cl)c3)c2cc1OCCCN1CCOCC1 | 85
